Assay results of several laboratories.
Each line is one published result; not all experiments were run side by side.
Organism: Bacillus subtilis

| SMILES | test | system | setting | MIC |
| --- | --- | --- | --- | --- |
| CCCCCCCCCCCCN(C)C(=O)CP(=O)(O)O | – | ATCC 23857 | – | > 200 µg/mL |
| CC[C@H](C)CCCCC(=O)N[C@@H](CCN)C(=O)N[C@H](C(=O)N[C@@H](CCN)C(=O)N[C@H]1CCNC(=O)[C@H]([C@@H](C)O)NC(=O)[C@H](CCN)NC(=O)[C@H](CCN)NC(=O)[C@H](CC(C)C)NC(=O)[C@@H](Cc2ccccc2)NC(=O)[C@H](CCN)NC1=O)[C@@H](C)O | broth microdilution | ATCC 6633 | 24 h | 1.5 µM |
| CCCCCCCCCCCCCCCC(=O)NS(=O)(=O)OCCCC | – | ATCC 23857 | – | > 200 µg/mL |
| N=C(N)NCCC[C@H](NC(=O)[C@H](Cc1c[nH]c2ccccc12)NC(=O)[C@H](CCCNC(=N)N)NC(=O)[C@@H](N)Cc1c[nH]c2ccccc12)C(=O)N[C@@H](Cc1ccccc1)C(=O)N[C@@H](CCC(N)=O)C(=O)N[C@@H](Cc1ccccc1)C(=O)N[C@@H](CCC(N)=O)C(=O)N[C@@H](Cc1ccccc1)C(=O)N[C@@H](CCCCN)C(N)=O | broth microdilution, optical density | – | – | 35 µM |
| CC[C@H](C)[C@H](NC(=O)[C@@H](NC(=O)[C@H](Cc1ccccc1)NC(=O)CNC(=O)[C@H](CCC(N)=O)NC(=O)[C@H](CCCCN)NC(=O)[C@H](C)N)C(C)C)C(=O)N[C@@H](Cc1ccc(O)cc1)C(=O)N[C@@H](CCCNC(=N)N)C(=O)N[C@H](C(=O)N[C@@H](CCCNC(=N)N)C(=O)N[C@H](C(=O)N[C@@H](CCCNC(=N)N)C(=O)N[C@@H](CCCNC(=N)N)C(=O)NCC(=O)N[C@@H](CC(N)=O)C(=O)N[C@@H](CCCNC(=N)N)C(=O)N[C@@H](CCCCN)C(N)=O)C(C)C)C(C)C | broth dilution | KCTC 3068 | – | 3.1 µM |
| CCCCCCCNC(=O)CP(=O)(O)O | – | ATCC 23857 | – | > 200 µg/mL |
| CC[C@H](C)[C@H](NC(=O)[C@H](CC(C)C)NC(=O)[C@H](CCCCN)NC(=O)[C@@H](NC(=O)[C@H](C)NC(=O)[C@H](CCC(=O)O)NC(=O)[C@H](Cc1c[nH]cn1)NC(=O)[C@@H](NC(=O)[C@H](CCCCN)NC(=O)[C@H](CCC(N)=O)NC(=O)[C@H](Cc1ccccc1)NC(=O)[C@@H](NC(=O)[C@H](CCCCN)NC(=O)[C@H](CCCCN)NC(=O)[C@H](CC(C)C)NC(=O)[C@H](C)N)C(C)C)[C@@H](C)CC)[C@@H](C)CC)C(N)=O | broth microdilution | KCTC 1998 | 18 h, 37 °C | 8 µM |
| Cc1ccc2[nH]c3c(c2c1)CCCC3NCCc1ccc(O)cc1 (centres unmarked) | broth microdilution | 168 | – | 16 µg/mL |
| CC(C)C[C@H](NC(=O)[C@@H](NC(=O)[C@H](CCCNC(=N)N)NC(=O)[C@H](CCC(N)=O)NC(=O)[C@H](Cc1ccccc1)NC(=O)[C@H](Cc1ccc(O)cc1)NC(=O)[C@H](CC(N)=O)NC(=O)[C@H](Cc1c[nH]c2ccccc12)NC(=O)[C@@H](NC(=O)[C@H](CCCNC(=N)N)NC(=O)[C@H](CCCCN)NC(=O)[C@@H](N)Cc1ccccc1)C(C)C)C(C)C)C(=O)N[C@H](C(=O)N[C@@H](CCCCN)C(=O)N[C@@H](CCCCN)C(N)=O)C(C)C | broth dilution | KCTC 3068 | – | 3.1 µM |
| N=C(N)NCCC[C@H](NC(=O)[C@H](Cc1c[nH]c2ccccc12)NC(=O)[C@@H](N)CCCNC(=N)N)C(=O)N[C@@H](Cc1c[nH]c2ccccc12)C(=O)N[C@@H](Cc1ccccc1)C(=O)N[C@@H](CCC(N)=O)C(=O)N[C@@H](Cc1ccccc1)C(=O)N[C@@H](CCC(N)=O)C(=O)N[C@@H](Cc1ccccc1)C(=O)N[C@@H](CCCCN)C(N)=O | broth microdilution, optical density | – | – | 8.8 µM |
| CCCCCCCCCCCC(=O)OC[C@H]1O[C@@H](n2cc(C)c(=O)[nH]c2=O)C[C@@H]1O | broth microdilution | – | – | 0.25 µg/mL |
| CC[C@H](C)[C@H](NC(=O)CN)C(=O)NCC(=O)N[C@@H](CCCCN)C(=O)N[C@@H](Cc1ccccc1)C(=O)N[C@@H](CC(C)C)C(=O)N[C@@H](CCCCN)C(=O)N[C@@H](CCCCN)C(=O)N[C@@H](C)C(=O)N[C@@H](CCCCN)C(=O)N[C@@H](CCCCN)C(=O)N[C@@H](Cc1ccccc1)C(=O)NCC(=O)N[C@@H](CCCCN)C(=O)N[C@@H](C)C(=O)N[C@@H](Cc1ccccc1)C(=O)N[C@H](C(=O)N[C@@H](CCCCN)C(=O)N[C@H](C(=O)N[C@@H](CC(C)C)C(=O)N[C@@H](CCCCN)C(=O)N[C@@H](CCCCN)C(N)=O)[C@@H](C)CC)C(C)C | broth dilution | KCTC 3068 | – | 6.3 µM |
| Cc1ccc2[nH]c3c(c2c1)CCCC3NCCc1ccc(Br)cc1 (centres unmarked) | broth microdilution | 168 | – | 4 µg/mL |
| CC(C)C[C@@H]1NC(=O)[C@H](Cc2ccccc2)NC(=O)[C@H](Cc2ccc(O)cc2)NC(=O)[C@H](CC(C)C)NC(=O)[C@H](CCC(=O)O)NC(=O)[C@H](Cc2ccccc2)NC(=O)[C@H](CCCNC(=N)N)NC(=O)[C@H](CCC(N)=O)NC(=O)[C@H](CC(C)C)NC(=O)[C@H](CC(=O)O)NC(=O)[C@@H]2CCCN2C(=O)[C@H](CCCCN)NC(=O)[C@H](C(C)C)NC(=O)[C@H](CC(N)=O)NC(=O)[C@H](Cc2ccc(O)cc2)NC(=O)[C@H]([C@@H](C)O)NC(=O)[C@@H](N)CSSC[C@@H](C(=O)O)NC(=O)[C@H]([C@@H](C)O)NC(=O)[C@H](C(C)C)NC(=O)[C@H]([C@@H](C)O)NC(=O)CNC1=O | broth dilution | CGMCC strain | 24 h | > 40 µM |

Excerpt of the above:
| SMILES | test | system | setting | MIC |
| --- | --- | --- | --- | --- |
| CC[C@H](C)[C@H](NC(=O)[C@H](CC(C)C)NC(=O)[C@H](CCCCN)NC(=O)[C@@H](NC(=O)[C@H](C)NC(=O)[C@H](CCC(=O)O)NC(=O)[C@H](Cc1c[nH]cn1)NC(=O)[C@@H](NC(=O)[C@H](CCCCN)NC(=O)[C@H](CCC(N)=O)NC(=O)[C@H](Cc1ccccc1)NC(=O)[C@@H](NC(=O)[C@H](CCCCN)NC(=O)[C@H](CCCCN)NC(=O)[C@H](CC(C)C)NC(=O)[C@H](C)N)C(C)C)[C@@H](C)CC)[C@@H](C)CC)C(N)=O | broth microdilution | KCTC 1998 | 18 h, 37 °C | 8 µM |
| N=C(N)NCCC[C@H](NC(=O)[C@H](Cc1c[nH]c2ccccc12)NC(=O)[C@@H](N)CCCNC(=N)N)C(=O)N[C@@H](Cc1c[nH]c2ccccc12)C(=O)N[C@@H](Cc1ccccc1)C(=O)N[C@@H](CCC(N)=O)C(=O)N[C@@H](Cc1ccccc1)C(=O)N[C@@H](CCC(N)=O)C(=O)N[C@@H](Cc1ccccc1)C(=O)N[C@@H](CCCCN)C(N)=O | broth microdilution, optical density | – | – | 8.8 µM |
